Results gathered from unrelated publications.
A part holds a random share of what one study measured. Several values in a cell are separate wells, animals, samples, runs or records.
UniProt P20794, sequence (whole entry, looked up): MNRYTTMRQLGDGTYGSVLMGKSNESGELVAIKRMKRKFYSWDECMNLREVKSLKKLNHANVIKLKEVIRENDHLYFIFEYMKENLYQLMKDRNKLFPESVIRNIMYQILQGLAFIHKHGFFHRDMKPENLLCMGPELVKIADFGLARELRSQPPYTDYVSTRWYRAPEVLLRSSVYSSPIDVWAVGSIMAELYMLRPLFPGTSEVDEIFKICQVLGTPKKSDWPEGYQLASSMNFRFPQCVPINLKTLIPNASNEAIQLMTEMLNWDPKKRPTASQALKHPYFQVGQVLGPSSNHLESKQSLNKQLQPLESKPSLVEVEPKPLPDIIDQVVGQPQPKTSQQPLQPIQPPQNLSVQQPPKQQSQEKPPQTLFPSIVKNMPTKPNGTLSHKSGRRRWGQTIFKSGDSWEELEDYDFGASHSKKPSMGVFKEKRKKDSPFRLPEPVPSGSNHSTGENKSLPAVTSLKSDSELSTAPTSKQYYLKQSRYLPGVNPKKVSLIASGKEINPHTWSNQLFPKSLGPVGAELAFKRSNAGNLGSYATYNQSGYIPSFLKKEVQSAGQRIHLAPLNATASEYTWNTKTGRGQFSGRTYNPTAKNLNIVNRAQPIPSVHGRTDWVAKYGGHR
UniProt Q07002, sequence (whole entry, looked up): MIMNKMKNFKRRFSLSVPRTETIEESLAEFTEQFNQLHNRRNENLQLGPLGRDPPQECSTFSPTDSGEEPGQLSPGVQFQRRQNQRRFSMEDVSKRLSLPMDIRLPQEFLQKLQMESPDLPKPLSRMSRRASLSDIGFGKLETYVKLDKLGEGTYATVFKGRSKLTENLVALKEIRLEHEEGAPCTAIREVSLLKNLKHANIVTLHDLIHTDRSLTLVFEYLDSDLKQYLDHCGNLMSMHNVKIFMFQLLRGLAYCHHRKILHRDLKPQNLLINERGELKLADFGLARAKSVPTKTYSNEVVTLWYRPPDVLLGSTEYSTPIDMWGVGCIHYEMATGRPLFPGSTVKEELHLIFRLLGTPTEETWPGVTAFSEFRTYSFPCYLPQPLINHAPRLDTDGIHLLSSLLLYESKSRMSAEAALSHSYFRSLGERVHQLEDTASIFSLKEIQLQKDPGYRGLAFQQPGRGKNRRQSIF
UniProt P36896, sequence (whole entry, looked up): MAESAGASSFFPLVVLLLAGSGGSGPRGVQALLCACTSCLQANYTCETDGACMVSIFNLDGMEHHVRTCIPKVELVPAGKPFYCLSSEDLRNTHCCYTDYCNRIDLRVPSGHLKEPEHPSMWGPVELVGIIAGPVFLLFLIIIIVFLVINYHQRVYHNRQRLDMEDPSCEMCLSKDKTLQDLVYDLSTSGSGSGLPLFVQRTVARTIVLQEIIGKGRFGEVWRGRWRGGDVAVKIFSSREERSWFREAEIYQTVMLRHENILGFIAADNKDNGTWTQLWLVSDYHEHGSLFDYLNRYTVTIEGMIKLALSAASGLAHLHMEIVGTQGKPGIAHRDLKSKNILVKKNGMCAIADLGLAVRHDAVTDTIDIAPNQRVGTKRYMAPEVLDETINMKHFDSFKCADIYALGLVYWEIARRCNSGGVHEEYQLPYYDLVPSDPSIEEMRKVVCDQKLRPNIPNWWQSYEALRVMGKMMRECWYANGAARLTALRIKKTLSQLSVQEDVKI
UniProt P42685, sequence (whole entry, looked up): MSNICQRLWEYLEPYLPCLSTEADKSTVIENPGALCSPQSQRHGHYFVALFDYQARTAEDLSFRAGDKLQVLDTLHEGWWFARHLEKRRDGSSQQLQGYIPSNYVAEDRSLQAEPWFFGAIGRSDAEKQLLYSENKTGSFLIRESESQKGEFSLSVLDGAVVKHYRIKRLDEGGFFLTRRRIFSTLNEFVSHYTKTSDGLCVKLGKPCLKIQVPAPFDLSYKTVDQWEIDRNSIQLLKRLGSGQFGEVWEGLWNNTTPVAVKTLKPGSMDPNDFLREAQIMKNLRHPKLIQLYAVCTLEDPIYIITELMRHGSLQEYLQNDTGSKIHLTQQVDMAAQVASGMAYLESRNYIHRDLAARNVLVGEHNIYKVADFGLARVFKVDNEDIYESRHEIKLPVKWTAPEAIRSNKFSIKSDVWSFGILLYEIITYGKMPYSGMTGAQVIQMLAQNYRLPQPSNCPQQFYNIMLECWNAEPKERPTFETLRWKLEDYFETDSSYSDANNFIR
UniProt Q99683, sequence (whole entry, looked up): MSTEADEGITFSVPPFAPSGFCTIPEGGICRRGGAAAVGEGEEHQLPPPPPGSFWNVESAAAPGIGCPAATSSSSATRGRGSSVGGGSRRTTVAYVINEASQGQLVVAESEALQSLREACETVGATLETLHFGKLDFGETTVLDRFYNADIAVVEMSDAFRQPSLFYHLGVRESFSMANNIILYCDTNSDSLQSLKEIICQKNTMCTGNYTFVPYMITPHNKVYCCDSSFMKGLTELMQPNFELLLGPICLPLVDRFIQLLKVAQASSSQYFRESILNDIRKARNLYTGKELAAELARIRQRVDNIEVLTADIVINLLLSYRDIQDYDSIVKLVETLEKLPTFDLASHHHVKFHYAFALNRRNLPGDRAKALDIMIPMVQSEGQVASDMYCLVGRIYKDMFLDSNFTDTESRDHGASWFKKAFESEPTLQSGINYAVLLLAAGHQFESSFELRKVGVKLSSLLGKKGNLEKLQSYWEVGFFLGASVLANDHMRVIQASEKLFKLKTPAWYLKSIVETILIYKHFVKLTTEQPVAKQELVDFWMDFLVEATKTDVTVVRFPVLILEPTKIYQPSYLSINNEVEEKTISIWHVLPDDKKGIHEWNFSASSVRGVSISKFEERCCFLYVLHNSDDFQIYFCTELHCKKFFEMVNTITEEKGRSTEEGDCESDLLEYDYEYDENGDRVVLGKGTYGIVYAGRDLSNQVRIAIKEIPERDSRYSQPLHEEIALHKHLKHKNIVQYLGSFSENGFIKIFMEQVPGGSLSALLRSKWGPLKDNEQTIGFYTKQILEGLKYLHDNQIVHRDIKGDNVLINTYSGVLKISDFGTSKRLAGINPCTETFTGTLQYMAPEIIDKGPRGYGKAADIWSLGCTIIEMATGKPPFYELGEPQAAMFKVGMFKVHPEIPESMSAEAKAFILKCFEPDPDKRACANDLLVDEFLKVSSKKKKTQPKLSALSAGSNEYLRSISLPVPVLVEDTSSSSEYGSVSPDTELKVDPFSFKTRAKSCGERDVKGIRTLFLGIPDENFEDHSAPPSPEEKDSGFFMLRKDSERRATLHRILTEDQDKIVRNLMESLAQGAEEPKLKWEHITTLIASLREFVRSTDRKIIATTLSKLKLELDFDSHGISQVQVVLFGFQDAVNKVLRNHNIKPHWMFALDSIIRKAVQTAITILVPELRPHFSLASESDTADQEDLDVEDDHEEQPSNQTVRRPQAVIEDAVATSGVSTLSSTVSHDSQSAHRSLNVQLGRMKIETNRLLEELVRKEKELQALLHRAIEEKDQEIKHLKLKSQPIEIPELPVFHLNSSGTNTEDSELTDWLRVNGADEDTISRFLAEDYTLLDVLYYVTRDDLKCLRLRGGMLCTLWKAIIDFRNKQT
UniProt P06239, sequence (whole entry, looked up): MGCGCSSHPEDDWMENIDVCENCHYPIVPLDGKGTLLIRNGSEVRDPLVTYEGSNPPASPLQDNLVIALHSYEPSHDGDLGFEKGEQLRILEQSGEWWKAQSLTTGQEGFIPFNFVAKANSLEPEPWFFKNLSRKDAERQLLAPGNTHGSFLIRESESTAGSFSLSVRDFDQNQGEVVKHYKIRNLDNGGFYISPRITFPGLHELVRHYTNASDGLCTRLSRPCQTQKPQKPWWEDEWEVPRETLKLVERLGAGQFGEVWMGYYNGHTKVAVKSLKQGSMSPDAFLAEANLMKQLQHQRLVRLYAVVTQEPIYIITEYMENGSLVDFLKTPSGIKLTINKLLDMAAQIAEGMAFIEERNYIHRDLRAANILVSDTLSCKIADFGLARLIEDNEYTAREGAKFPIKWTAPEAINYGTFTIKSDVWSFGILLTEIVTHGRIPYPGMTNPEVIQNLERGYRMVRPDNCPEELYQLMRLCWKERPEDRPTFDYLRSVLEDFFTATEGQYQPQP
UniProt P49137, sequence (whole entry, looked up): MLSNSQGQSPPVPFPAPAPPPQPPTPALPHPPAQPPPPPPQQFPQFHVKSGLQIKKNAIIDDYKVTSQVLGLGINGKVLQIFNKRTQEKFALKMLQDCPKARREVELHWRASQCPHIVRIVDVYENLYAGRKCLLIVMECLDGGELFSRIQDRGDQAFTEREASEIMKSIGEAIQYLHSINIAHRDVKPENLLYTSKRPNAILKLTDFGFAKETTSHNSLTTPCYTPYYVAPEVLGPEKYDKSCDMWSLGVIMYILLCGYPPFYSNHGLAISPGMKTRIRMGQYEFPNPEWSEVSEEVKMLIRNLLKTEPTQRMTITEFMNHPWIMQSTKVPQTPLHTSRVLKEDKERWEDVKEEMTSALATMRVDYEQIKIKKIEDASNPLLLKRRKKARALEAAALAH

Series 1
Organism: Sarcocystis neurona
Read-out: parasite growth
Concentration: 10 µM
Setting: first screen
Endpoint: inhibition
C[C@]12CC[C@@H]3c4ccc(O)cc4CC[C@H]3[C@@H]1CC[C@@H]2O: -17%
CCCN[C@H]1CCc2nc(N)sc2C1.Cl: -14.1%
Cl.Nc1nc2ccc(OC(F)(F)F)cc2s1: -176%

Series 2
Structure (SMILES): O=C(c1ccccc1)c1ccc(N2CCOCC2)cc1O
Read-out: enzyme activity
Action: inhibitor
Concentration: 0.5 µM
Baseline: control
Endpoint: remaining activity
Serine/threonine-protein kinase TAO2 (TAOK2, Homo sapiens, UniProt Q9UL54): 107%
Macrophage-stimulating protein receptor (MST1R, Homo sapiens, UniProt Q04912): 106%
Serine/threonine-protein kinase Nek1 (NEK1, Homo sapiens, UniProt Q96PY6): 115%
Serine/threonine-protein kinase Nek6 (NEK6, Homo sapiens, UniProt Q9HC98): 95%
MAP kinase-activated protein kinase 2 (MAPKAPK2, Homo sapiens, UniProt P49137): 102%
Casein kinase I isoform gamma-2 (CSNK1G2, Homo sapiens, UniProt P78368): 96.1%
Tyrosine-protein kinase Mer (MERTK, Homo sapiens, UniProt Q12866): 94.5%
Fibroblast growth factor receptor 3 (FGFR3, Homo sapiens, UniProt P22607): 104%
Dual specificity mitogen-activated protein kinase kinase 2 (MAP2K2, Homo sapiens, UniProt P36507): 101%
Mitogen-activated protein kinase kinase kinase 14 (MAP3K14, Homo sapiens, UniProt Q99558): 75.1%
Wee1-like protein kinase (WEE1, Homo sapiens, UniProt P30291): 94.2%
Fibroblast growth factor receptor 1 (FGFR1, Homo sapiens, UniProt P11362): 95.9%
Serine/threonine-protein kinase TBK1 (TBK1, Homo sapiens, UniProt Q9UHD2): 100%
Mitogen-activated protein kinase 3 (MAPK3, Homo sapiens, UniProt P27361): 102%
Activin receptor type-1B (ACVR1B, Homo sapiens, UniProt P36896): 104%
Serine/threonine-protein kinase ULK2 (ULK2, Homo sapiens, UniProt Q8IYT8): 96.7%
Tyrosine-protein kinase Lck (LCK, Homo sapiens, UniProt P06239): 101%
Tyrosine-protein kinase FRK (FRK, Homo sapiens, UniProt P42685): 102%
Rhodopsin kinase GRK7 (GRK7, Homo sapiens, UniProt Q8WTQ7): 99.6%
Casein kinase I isoform gamma-3 (CSNK1G3, Homo sapiens, UniProt Q9Y6M4): 98.8%
Ephrin type-A receptor 3 (EPHA3, Homo sapiens, UniProt P29320): 105%
Tyrosine-protein kinase JAK3 (JAK3, Homo sapiens, UniProt P52333): 103%
Ribosomal protein S6 kinase alpha-2 (RPS6KA2, Homo sapiens, UniProt Q15349): 102%
Mitogen-activated protein kinase kinase kinase 5 (MAP3K5, Homo sapiens, UniProt Q99683): 97.8%
Glycogen synthase kinase-3 beta (GSK3B, Homo sapiens, UniProt P49841): 118%

Series 3
Cell line: HaCaT
Concentration: 100 µM
Time: 36 h
Endpoint: viability
N#C[C@@H]1C[C@@H]2C[C@@H]2N1C(=O)[C@@H](N)C12CC3CC(CC(O)(C3)C1)C2: 90.6%
Cc1nccn1CC1CCc2c(c3ccccc3n2C)C1=O (centres unmarked): 61.4%
Cc1ccc(C(=O)Nc2ccc(S(=O)(=O)O)c3cc(S(=O)(=O)O)cc(S(=O)(=O)O)c23)cc1NC(=O)c1cccc(NC(=O)Nc2cccc(C(=O)Nc3cc(C(=O)Nc4ccc(S(=O)(=O)O)c5cc(S(=O)(=O)O)cc(S(=O)(=O)O)c45)ccc3C)c2)c1: 78.1%
CCOc1ccc2ccccc2c1C(=O)N[C@@H]1C(=O)N2[C@@H]1SC(C)(C)[C@@H]2C(=O)O: 88.8%
CCOc1ccc2nc(SCCN3CCOCC3)[nH]c2c1: 81.7%

Series 4
Compound: CC(C)S(=O)(=O)c1ccc2nccc(Nc3ccc4sc(C5CCCC5)nc4c3)c2c1.Cl
Read-out: kinase activity
Action: inhibitor
Concentration: 1 µM
Endpoint: remaining activity
Activated CDC42 kinase 1 (TNK2, Homo sapiens, UniProt Q07912): 77%
Tyrosine-protein kinase SYK (SYK, Homo sapiens, UniProt P43405): 105%
Macrophage colony-stimulating factor 1 receptor (CSF1R, Homo sapiens, UniProt P07333): 64%
Serine/threonine-protein kinase BRSK1 (BRSK1, Homo sapiens, UniProt Q8TDC3): 89%

Series 5
Structure (SMILES): N=C(N)NC(=O)c1cnn(-c2cccc3ncccc23)c1C1CC1
Read-out: β-arrestin recruitment
Action: agonist
Method: PRESTO-Tango
Concentration: 10 µM
Baseline: untreated
Endpoint: fold over basal
G-protein coupled receptor 182 (GPR182, Homo sapiens, UniProt O15218): 0.99
C-X-C chemokine receptor type 2 (CXCR2, Homo sapiens, UniProt P25025): 1.12
Free fatty acid receptor 3 (FFAR3, Homo sapiens, UniProt O14843): 1.03 fold
Adhesion G protein-coupled receptor F4 (ADGRF4, Homo sapiens, UniProt Q8IZF3): 1.08

Series 6
Cell line: mouse MPNST tumor cells
Method: high-content immunofluorescence imaging
Measured: nuclear SOX9
Concentration: 10 µM
Time: 12 h
Setting: mean of 2 replicates
Baseline: DMSO control
Reading: higher = more nuclear SOX9
Endpoint: nuclear SOX9 intensity
O=C(NCCN1CCOCC1)c1ccc(Cl)cc1: 99.8 % of DMSO and 100 % of DMSO
COc1cccc(OC)c1C(=O)N[C@@H]1C(=O)N2[C@@H]1SC(C)(C)[C@@H]2C(=O)O: 97.4 % of DMSO
O=c1cc(N2CCN(c3cccc(C(F)(F)F)c3)CC2)[nH]c(=O)n1C1CCCCC1: 134 % of DMSO
N=C(N)c1ccc(OCCCCCOc2ccc(C(=N)N)cc2)cc1: 77.4 % of DMSO and 74.1 % of DMSO

Series 7
Structure (SMILES): O=C(NC[C@@H]1[C@H]2CN(C(=O)OCc3cc(C(F)(F)F)cc(C(F)(F)F)c3)C[C@@H]12)c1ccc2[nH]nnc2c1
Read-out: cell-free assay
Method: competition with immobilised ligand
Concentration: 1 µM
Endpoint: remaining binding
Serine/threonine-protein kinase MAK (MAK, Homo sapiens, UniProt P20794): 100%
Rhodopsin kinase GRK1 (GRK1, Homo sapiens, UniProt Q15835): 90%
ALK tyrosine kinase receptor (ALK, Homo sapiens, UniProt Q9UM73, L1196M): 100%
Cyclin-dependent kinase 18 (CDK18, Homo sapiens, UniProt Q07002): 100%

Series 8
Target: Calcium/calmodulin-dependent protein kinase type II subunit alpha (CAMK2A, Homo sapiens, UniProt Q9UQM7)
UniProt Q9UQM7, sequence (whole entry, looked up): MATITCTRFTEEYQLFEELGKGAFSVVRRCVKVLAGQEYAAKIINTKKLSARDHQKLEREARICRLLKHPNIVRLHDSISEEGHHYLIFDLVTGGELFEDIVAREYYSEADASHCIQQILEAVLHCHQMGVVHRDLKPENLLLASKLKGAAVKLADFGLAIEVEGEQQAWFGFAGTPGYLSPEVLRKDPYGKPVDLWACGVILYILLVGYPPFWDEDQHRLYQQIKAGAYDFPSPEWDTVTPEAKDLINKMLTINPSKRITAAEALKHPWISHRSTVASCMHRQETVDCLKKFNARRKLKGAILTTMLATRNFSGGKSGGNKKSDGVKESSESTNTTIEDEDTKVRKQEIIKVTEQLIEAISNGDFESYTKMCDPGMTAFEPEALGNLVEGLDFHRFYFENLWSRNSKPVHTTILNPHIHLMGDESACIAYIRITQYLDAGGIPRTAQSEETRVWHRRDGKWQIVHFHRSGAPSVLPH
Read-out: enzyme activity
Action: inhibitor
Concentration: 10 µM
Endpoint: inhibition
COC(=O)c1cc(O)c(O)c(OC)c1: 0%
CC(C)NCC(O)COc1cccc2[nH]ccc12 (centres unmarked): -14%
CC(C)C[C@H](NC(=O)CNC(=O)c1cc(Cl)ccc1Cl)B(O)O: -5%
Cc1c(-c2ccccc2)oc2c(C(=O)OCCN3CCCCC3)cccc2c1=O: -3%
